{"data": "Published values from different studies", "note": "Numbered parts are unrelated; each lists some results of a single study."}
{"data": "Study 1", "target": "Sal-like protein 4, full length isoform B (SALL4, Homo sapiens, UniProt Q9UJQ4-2, residues 1-616)", "method": "universal PBM", "molecule type": "double-stranded DNA, one strand shown", "medium": "in vitro", "tested at": "not given", "notes": "8-mer, flanks averaged, mean of replicates", "reading": "higher = stronger binding", "Construct (chain)": "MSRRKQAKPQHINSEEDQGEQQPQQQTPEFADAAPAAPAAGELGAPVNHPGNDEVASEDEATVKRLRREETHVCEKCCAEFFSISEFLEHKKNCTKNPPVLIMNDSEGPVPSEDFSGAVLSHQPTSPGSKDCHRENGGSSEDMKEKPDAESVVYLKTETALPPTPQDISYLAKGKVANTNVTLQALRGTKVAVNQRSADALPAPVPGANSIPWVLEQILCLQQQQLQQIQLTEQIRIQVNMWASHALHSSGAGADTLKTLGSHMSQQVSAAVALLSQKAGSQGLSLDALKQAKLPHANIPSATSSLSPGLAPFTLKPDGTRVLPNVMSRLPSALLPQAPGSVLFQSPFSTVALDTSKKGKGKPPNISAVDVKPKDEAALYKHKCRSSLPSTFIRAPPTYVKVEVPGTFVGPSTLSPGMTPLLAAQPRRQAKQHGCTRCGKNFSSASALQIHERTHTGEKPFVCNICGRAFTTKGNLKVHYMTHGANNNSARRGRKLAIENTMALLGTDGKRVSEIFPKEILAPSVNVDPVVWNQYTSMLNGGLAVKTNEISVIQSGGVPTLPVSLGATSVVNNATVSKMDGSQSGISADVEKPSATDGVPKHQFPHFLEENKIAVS"}
{"Strand": "CCTGATAC", "E-score": 0.145}
{"Strand": "ACTGAATC", "E-score": -0.067}
{"Strand": "CACCTACA", "E-score": -0.0802}
{"Strand": "AATCTCTA", "E-score": 0.156}
{"data": "Study 2", "target": "Interferon regulatory factor 7, full length, phosphomimetic (IRF7, Homo sapiens, UniProt Q92985, residues 1-503, S101K/S471D/S472D/S475D/S476D/S477D/S483D/S484D/S487D)", "method": "protein-binding microarray", "molecule type": "double-stranded DNA, one strand shown", "medium": "in vitro", "tested at": "250 nM", "notes": "60-bp whole probe", "added": "salmon DNA 0.4 mg/ml", "reference": "random background probes", "reading": "higher = stronger binding", "Construct (chain)": "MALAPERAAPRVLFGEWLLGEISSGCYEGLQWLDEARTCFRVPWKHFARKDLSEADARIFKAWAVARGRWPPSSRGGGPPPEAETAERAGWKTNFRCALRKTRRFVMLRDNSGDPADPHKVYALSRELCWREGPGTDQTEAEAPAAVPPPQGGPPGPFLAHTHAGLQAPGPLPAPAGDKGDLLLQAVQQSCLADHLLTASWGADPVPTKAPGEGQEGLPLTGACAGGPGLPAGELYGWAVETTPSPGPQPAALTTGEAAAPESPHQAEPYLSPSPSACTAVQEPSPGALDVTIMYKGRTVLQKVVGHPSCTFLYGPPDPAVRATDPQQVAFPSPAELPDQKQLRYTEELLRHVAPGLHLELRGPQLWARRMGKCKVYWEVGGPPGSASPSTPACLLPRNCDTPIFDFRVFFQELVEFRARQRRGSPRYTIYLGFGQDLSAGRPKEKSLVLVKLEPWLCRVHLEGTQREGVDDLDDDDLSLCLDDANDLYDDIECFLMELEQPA"}
{"Strand": "GCCTAGCACTTAGAACTGAGACTGCATTAGTGCTAGGTCTTGATTCGCTTGACGCTGCTG", "log fluorescence [z-score]": 0.0629}
{"Strand": "GCCTAGCACTCATATATGAATATATAACTGTGCTAGGTCTTGATTCGCTTGACGCTGCTG", "log fluorescence [z-score]": 0.356}
{"Strand": "GCCTAGCACTTAGGTCTCGTTTTCCTTTAGTGCTAGGTCTTGATTCGCTTGACGCTGCTG", "log fluorescence [z-score]": 8.15}
{"Strand": "GCCTAGCACGACGAACTGATACTGGAGACGTGCTAGGTCTTGATTCGCTTGACGCTGCTG", "log fluorescence [z-score]": -0.059}
{"data": "Study 3", "target": "Histone acetyltransferase KAT6A, winged helix 2, GST fusion (KAT6A, Homo sapiens, UniProt Q92794, residues 85-181)", "method": "protein binding microarray", "molecule type": "double-stranded DNA, one strand shown", "medium": "in vitro", "tested at": "not given", "notes": "8-mer, flanks averaged, mean of 2 arrays, mostly near background", "reference": "not given", "reading": "higher = stronger binding", "Target sequence (chain)": "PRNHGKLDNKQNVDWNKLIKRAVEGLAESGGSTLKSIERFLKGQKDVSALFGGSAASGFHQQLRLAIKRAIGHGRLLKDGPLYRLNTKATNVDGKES"}
{"Strand": "GAGCCTAC", "E-score": -0.0327}
{"Strand": "ATAGTGGG", "E-score": -0.0978}
{"Strand": "CTGCCCAG", "E-score": -0.0255}
{"Strand": "ATGCTACC", "E-score": 0.0599}
{"data": "Single results of other studies"}
{"Molecule": "PhoQ, residues 284 288 289 292 302 303 SSYNSA", "target": "PhoP, residues 12 14 15 18 19 TPWLV (Escherichia coli, UniProt P23836)", "assay": "Sort-seq, measured: YFP reporter", "system": "E. coli", "setting": "PhoQ-PhoP variant library, added: 10 µM Mg2+", "scale": "reference: high Mg2+ state, higher = stronger signaling", "endpoint": "fold induction", "value": 0.875}
{"note": "Some of these lines once more (study 2):"}
{"Strand": "GCCTAGCACTTAGGTCTCGTTTTCCTTTAGTGCTAGGTCTTGATTCGCTTGACGCTGCTG", "log fluorescence [z-score]": 8.15}
